# Experimental data of several laboratories.
# Values joined by “and” are separate records of one study, mostly repeats; a detail may differ. ± gives the spread as reported.
# Bone morphogenetic protein 2: Bone morphogenetic protein 2 (Homo sapiens, UniProt P12643)
# UniProt P12643, sequence (whole entry, looked up): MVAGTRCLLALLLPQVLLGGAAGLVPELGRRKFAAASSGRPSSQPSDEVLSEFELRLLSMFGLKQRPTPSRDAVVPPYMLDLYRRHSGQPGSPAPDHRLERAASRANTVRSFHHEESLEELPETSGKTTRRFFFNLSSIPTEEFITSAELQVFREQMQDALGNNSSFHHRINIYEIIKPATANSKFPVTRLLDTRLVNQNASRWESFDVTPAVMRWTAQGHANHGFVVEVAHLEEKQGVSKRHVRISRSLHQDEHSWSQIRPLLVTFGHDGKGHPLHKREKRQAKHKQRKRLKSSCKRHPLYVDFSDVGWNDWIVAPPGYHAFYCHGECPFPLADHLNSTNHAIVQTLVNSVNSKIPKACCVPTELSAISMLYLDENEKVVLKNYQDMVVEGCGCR
# RIPK1: Receptor-interacting serine/threonine-protein kinase 1 (RIPK1, Homo sapiens, UniProt Q13546)
# UniProt Q13546, sequence (whole entry, looked up): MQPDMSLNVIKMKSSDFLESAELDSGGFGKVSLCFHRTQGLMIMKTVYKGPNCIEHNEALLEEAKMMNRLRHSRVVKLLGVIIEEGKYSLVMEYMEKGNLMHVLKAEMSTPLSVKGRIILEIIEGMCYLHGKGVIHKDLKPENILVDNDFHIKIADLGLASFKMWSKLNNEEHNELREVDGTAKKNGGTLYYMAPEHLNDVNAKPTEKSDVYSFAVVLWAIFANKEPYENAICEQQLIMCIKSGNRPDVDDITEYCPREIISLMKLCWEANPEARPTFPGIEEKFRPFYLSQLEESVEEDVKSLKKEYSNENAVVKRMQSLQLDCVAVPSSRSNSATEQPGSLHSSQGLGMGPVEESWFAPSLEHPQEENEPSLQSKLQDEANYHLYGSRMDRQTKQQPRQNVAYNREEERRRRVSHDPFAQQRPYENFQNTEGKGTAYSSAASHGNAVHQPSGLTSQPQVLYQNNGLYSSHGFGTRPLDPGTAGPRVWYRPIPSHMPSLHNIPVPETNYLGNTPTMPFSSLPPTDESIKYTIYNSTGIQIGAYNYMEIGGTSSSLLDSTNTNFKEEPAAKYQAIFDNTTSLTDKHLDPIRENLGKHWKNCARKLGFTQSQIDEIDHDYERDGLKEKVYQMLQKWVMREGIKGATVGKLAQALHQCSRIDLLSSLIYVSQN
# ABO G235S/G268A/L266M/R176G: Histo-blood group ABO system transferase (ABO, Homo sapiens, UniProt P16442, G235S/G268A/L266M/R176G)
# UniProt P16442, sequence (whole entry, unmodified, looked up): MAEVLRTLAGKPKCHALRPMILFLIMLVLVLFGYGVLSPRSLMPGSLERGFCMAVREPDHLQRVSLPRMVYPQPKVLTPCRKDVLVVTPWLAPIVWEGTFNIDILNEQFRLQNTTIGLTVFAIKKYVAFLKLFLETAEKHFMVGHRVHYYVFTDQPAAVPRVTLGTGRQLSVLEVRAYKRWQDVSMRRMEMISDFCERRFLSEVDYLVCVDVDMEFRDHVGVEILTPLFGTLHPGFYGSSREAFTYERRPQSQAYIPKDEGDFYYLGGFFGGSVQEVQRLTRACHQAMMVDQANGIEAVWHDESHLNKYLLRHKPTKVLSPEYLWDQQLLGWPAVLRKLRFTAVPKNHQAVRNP
# ADORA1: Adenosine receptor A1 (ADORA1, Homo sapiens, UniProt P30542)
# UniProt P07814, sequence (whole entry, looked up): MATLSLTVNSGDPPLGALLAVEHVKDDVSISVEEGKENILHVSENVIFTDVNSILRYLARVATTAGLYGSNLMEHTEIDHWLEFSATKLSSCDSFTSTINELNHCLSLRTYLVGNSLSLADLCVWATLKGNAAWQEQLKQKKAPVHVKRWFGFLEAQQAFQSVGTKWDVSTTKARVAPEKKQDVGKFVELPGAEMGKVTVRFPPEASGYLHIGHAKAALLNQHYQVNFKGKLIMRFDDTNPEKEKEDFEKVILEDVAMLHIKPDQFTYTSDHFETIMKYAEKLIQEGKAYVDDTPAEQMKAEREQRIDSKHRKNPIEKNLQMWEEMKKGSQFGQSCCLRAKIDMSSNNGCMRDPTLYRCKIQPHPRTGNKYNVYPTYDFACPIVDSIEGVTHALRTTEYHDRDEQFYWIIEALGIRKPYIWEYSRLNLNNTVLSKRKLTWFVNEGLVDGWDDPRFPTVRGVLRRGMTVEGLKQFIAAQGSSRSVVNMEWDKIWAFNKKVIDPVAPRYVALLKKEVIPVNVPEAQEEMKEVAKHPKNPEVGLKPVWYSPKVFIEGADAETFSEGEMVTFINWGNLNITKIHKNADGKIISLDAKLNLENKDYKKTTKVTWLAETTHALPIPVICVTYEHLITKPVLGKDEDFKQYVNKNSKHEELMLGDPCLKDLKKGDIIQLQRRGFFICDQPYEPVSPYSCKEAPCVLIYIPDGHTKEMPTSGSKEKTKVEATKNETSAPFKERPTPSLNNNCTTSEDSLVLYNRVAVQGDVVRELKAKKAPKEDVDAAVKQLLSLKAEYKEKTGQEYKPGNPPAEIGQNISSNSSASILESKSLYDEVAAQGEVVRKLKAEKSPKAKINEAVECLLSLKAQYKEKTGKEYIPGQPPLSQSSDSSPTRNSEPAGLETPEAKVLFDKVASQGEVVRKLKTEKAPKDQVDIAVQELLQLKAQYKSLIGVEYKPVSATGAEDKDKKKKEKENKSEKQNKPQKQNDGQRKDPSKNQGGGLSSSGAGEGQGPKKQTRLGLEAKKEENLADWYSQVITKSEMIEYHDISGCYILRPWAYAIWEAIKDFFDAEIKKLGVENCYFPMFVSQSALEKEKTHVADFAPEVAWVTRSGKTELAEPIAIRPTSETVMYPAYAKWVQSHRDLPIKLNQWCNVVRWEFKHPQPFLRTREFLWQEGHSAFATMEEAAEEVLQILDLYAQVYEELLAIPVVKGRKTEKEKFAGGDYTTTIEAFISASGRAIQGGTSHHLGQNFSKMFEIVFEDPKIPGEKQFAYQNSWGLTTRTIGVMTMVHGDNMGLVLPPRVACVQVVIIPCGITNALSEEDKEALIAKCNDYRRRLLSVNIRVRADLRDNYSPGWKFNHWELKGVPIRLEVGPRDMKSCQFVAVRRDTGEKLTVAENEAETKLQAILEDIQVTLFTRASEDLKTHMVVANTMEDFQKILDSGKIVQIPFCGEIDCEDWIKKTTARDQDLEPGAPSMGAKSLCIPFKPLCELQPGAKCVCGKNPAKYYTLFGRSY
# UniProt P30542, sequence (whole entry, looked up): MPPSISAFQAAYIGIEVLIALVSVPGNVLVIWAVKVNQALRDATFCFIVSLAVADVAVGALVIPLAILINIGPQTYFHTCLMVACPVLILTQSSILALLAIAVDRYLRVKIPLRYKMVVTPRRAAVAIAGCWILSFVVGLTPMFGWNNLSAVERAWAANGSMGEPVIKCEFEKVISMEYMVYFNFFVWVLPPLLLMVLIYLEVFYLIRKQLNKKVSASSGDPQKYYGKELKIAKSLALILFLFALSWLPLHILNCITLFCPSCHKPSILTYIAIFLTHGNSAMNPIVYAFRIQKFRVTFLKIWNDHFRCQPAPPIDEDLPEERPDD
# UniProt P36897, sequence (whole entry, looked up): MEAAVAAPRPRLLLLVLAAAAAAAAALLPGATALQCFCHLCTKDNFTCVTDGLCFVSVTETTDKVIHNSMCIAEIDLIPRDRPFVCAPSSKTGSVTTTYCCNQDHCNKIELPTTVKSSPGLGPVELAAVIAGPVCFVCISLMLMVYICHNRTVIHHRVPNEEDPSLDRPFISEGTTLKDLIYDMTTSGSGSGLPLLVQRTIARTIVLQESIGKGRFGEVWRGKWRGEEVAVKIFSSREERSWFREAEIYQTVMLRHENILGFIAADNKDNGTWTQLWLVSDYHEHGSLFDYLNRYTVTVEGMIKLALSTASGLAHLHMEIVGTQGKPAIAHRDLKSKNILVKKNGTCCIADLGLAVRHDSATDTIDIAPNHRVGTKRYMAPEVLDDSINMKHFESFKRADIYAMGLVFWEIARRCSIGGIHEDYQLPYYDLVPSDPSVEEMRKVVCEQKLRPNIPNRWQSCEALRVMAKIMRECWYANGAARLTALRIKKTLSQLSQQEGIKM
# UniProt Q8TE23, sequence (whole entry, looked up): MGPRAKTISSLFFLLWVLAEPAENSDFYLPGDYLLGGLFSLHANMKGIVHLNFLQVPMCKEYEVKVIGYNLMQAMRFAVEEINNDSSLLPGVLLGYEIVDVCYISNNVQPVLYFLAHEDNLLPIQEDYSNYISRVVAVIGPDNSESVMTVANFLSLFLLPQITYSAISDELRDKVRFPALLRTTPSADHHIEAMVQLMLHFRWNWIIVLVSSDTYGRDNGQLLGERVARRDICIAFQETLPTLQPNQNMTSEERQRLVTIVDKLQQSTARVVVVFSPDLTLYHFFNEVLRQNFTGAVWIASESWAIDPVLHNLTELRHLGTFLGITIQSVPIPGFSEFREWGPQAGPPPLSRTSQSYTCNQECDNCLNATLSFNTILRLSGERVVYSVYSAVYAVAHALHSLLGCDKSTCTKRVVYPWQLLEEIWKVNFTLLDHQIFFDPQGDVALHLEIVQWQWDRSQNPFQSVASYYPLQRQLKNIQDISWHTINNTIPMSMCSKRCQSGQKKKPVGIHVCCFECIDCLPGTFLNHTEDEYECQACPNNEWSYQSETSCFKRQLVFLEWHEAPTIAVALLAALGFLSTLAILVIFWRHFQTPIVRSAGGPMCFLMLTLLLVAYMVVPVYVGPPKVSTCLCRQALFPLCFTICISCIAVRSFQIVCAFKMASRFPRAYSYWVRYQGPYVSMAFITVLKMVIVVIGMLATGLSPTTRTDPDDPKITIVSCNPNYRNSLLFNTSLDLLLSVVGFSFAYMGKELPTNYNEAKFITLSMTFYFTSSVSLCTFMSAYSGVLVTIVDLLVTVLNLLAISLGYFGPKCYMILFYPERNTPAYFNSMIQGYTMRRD
# UniProt Q9NYW4, sequence (whole entry, looked up): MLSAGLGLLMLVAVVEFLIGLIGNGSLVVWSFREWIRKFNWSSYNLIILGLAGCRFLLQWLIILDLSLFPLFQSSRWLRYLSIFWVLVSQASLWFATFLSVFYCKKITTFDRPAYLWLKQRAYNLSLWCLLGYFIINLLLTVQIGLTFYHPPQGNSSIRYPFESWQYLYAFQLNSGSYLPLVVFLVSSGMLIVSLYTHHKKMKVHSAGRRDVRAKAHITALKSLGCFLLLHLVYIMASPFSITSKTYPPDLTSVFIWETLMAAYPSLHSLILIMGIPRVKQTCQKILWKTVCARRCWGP
Compound,target,assay,system,setting,Kd
Cc1cccc2c1N(C(=O)n1ccnn1)CC2,"KAI2 (Arabidopsis thaliana, UniProt Q9SZU7)","binding, ITC",,,27.7 µM
Cc1n(Cc2ccc(N=[N+]=[N-])cc2)c2c([n+]1CCOCCOCCNC(=O)CCCC[C@@H]1SC[C@@H]3NC(=O)N[C@@H]31)C(=O)c1ccccc1C2=O,"RIPK2 (Homo sapiens, UniProt O43353)",binding,,,~2.3 µM
COc1ccc2nc3cc(Cl)ccc3c(NCCCCNc3nc(N)nc(N)n3)c2c1,"RNA A, CCUG repeat 11-mer","binding, ITC",,,79 µM
CC(=O)N[C@@H]1[C@@H](O[C@@H]2O[C@H](C(=O)O)[C@@H](O[C@@H]3O[C@H](COS(=O)(=O)O)[C@@H](OS(=O)(=O)O)[C@H](O[C@@H]4O[C@H](C(=O)O)[C@@H](O[C@@H]5O[C@H](COS(=O)(=O)O)[C@@H](OS(=O)(=O)O)[C@H](O[C@@H]6O[C@H](C(=O)O)[C@@H](OS(=O)(=O)O)[C@H](OS(=O)(=O)O)[C@H]6OS(=O)(=O)O)[C@H]5NC(C)=O)[C@H](OS(=O)(=O)O)[C@H]4OS(=O)(=O)O)[C@H]3NC(C)=O)[C@H](OS(=O)(=O)O)[C@H]2OS(=O)(=O)O)[C@H](OS(=O)(=O)O)[C@@H](COS(=O)(=O)O)O[C@H]1N=[N+]=[N-],Bone morphogenetic protein 2,"ligand displacement, FP",,,0.214 µM
O=C(Cc1cccc(C(F)(F)F)c1)Nc1cc(Oc2c(Cl)cc3nc(NC(=O)C4CC4)sc3c2Cl)ccc1F,RIPK1,"binding, competition with immobilised ligand",,,0.064 µM
COc1cc(-c2nc3ccc(C(=O)NCCCN(C)C)cc3n2C2CCC2)cc(OC)c1OC,"TGFBR1 (Homo sapiens, UniProt P36897)","binding, TR-FRET",,,0.847 µM
CCCCCCCCO[C@@H]1O[C@H](CO)[C@H](O)C[C@H]1O[C@@H]1O[C@@H](C)[C@@H](O)[C@@H](O)[C@@H]1O,ABO G235S/G268A/L266M/R176G,"binding, methyl-TROSY NMR titration",,added: saturating UDP-Glc,120 ± 10 µM
N[C@@H](Cc1ccc(O)c(I)c1)C(=O)O,"Iodotyrosine deiodinase (IYD, Thermotoga neapolitana, UniProt B9K712)","binding, FMN fluorescence quenching",,"pH 7.4, 25 °C, wild-type enzyme",0.05 ± 0.02 µM
O=C(O[C@@H]1Cc2c(O)cc(O)cc2O[C@@H]1c1cc(O)c(O)c(O)c1)c1cc(O)c(O)c(O)c1,"PNLIP (Sus scrofa, UniProt P00591)","binding, fluorescence titration",,pH 8.0,36 µM
O=c1[nH]cnc2c(CN3C[C@@H](O)[C@H](O)C3)c[nH]c12,"PNP (Homo sapiens, UniProt P00491)","enzyme activity, inhibitor",,"pH 7.4, 25 °C, first subunit slow-onset, added: 50 mM phosphate",0.000156 ± 7.2e-05 µM
NCC(=O)NCC(=O)N[C@@H](Cc1c[nH]cn1)C(=O)O,HIV RRE IB RNA,fluorescein-labelled RNA titration,,1 mM TCEP,320 ± 30 µM
Cc1ccc(S/N=C/c2c(O)ccc3ccccc23)cc1,"Poly(ADP-ribose) glycohydrolase (Homo sapiens, UniProt Q86W56)",isothermal titration calorimetry,,,0.547 µM
Nc1ncnc2c1ncn2[C@@H]1O[C@H](CN(CCNc2ncnc3c2ncn3[C@@H]2O[C@H](CO)[C@@H](O)[C@H]2O)CC[C@H](N)C(=O)O)[C@@H](O)[C@H]1O,"Ribosomal RNA large subunit methyltransferase J (rlmJ, Escherichia coli, UniProt P37634)",,,,25 ± 3 µM
OCc1c(Cl)ccc(Oc2ccc(Cl)cc2Cl)c1O,"Enoyl-acyl carrier reductase, with NAD+ (ENR, Toxoplasma gondii, UniProt Q6UCJ9)",thermal shift,,added: NAD+ 100 µM,0.21 ± 0.06 µM
CC(=O)N[C@H]1[C@@H](OP(=O)(O)OP(=O)(O)OC[C@H]2O[C@@H](n3ccc(=O)[nH]c3=O)[C@H](O)[C@@H]2O)O[C@H](CO)[C@H](O)[C@@H]1O,ABO G235S/G268A/L266M/R176G,"binding, NMR",,,3370 µM
Cc1cc(N2CC[C@](C#N)(C3(C)CC3)C2=O)cc(C(=O)NCc2cc(F)cc(-c3cnn(C)c3)c2)n1,"EPRS1 (Homo sapiens, UniProt P07814)","binding, MST",,,1.48 µM
COc1cc(C2CC(=O)Nc3nc(N)[nH]c(=O)c32)ccc1O (stereo not drawn),"uncharacterized protein (Leishmania donovani, UniProt A0A3Q8IA09)",ITC,,298 K,1.2 µM
Cc1ccc(Oc2nc3cc(-c4ccc5c(ccn5C)c4)c(Cl)cc3[nH]2)cc1C(=O)O,"PRKAA1/PRKAB1, phosphorylated; with gamma1 (Homo sapiens, UniProt Q13131+Q9Y478, R83A)",biolayer interferometry,,AMPK complex α1(R83A)β1γ1,1.9 µM
C[C@H](NC(=O)[C@H](C)NC(=O)[C@H](CO)NC(=O)[C@@H](N)CC(=O)O)C(=O)N[C@@H](CCCCN)C(=O)N[C@@H](CCCNC(=N)N)C(=O)N[C@@H](Cc1c[nH]cn1)C(=O)N[C@@H](Cc1c[nH]cn1)C(=O)NCC(=O)N[C@@H](Cc1ccc(O)cc1)C(=O)N[C@@H](CCCCN)C(=O)N[C@@H](CCCNC(=N)N)C(N)=O,Cu(I),"binding, Ferrozine competition titration",,"pH 7.4, anaerobic",0.2 µM
CN(C)c1cc2ccccc2c(N)n1,"CUGBP Elav-like family member 1, RRM1/2 domains (CELF1, Homo sapiens, UniProt Q92879, C177A)",isothermal titration calorimetry,,25 °C,21.3 ± 3.3 µM
CC(=O)N[C@@H]1[C@@H](O[C@@H]2O[C@H](C(=O)O)[C@@H](OS(=O)(=O)O)[C@H](OS(=O)(=O)O)[C@H]2OS(=O)(=O)O)[C@H](OS(=O)(=O)O)[C@@H](COS(=O)(=O)O)O[C@H]1N=[N+]=[N-],Bone morphogenetic protein 2,"ligand displacement, FP",,,110 µM
CCCn1c(=O)c2[nH]c(-c3ccc(OCC(=O)NCCNC(=O)CCCCCNC(=O)COc4ccc(/C=C/C5=[N+]6C(=Cc7ccc(-c8cccs8)n7[B-]6(F)F)C=C5)cc4)cc3)nc2n(CCC)c1=O,ADORA1,"CRE reporter gene, antagonist",CHO-A1,"Gs-mediated enhancement, added: NECA and forskolin",0.115 µM
Cc1cc(N2CCC(CO)(C3CC3)C2=O)cc(C(=O)NCc2cc(F)cc(-c3cnn(C)c3)c2)n1 (stereo not drawn),"Bifunctional glutamate/proline--tRNA ligase, prolyl-tRNA synthetase domain (EPRS1, Homo sapiens, UniProt P07814)","binding, microscale thermophoresis",,,2.58 µM and 1.99 µM
C=CCCCCCCO[C@@H]1O[C@H](CO)[C@@H](O[C@@H]2O[C@H](CO)[C@H](O)[C@H](O)[C@H]2O[C@@H]2O[C@@H](C)[C@@H](O)[C@@H](O)[C@@H]2O)[C@H](O)[C@H]1NC(C)=O,ABO G235S/G268A/L266M/R176G,methyl-TROSY NMR titration lineshape,,"two-state binding model, added: acceptor binding, saturating UDP",10 ± 1 µM
CC(=O)c1cnc(N)nc1N1CC[C@H]1c1nn2ccc(Cl)c2c(=O)n1-c1ccccc1,"Phosphatidylinositol 4,5-bisphosphate 3-kinase catalytic subunit delta isoform, with p85 (PIK3CD, Homo sapiens, UniProt O00329)","binding, SPR",,,0.00243 µM
O=C1C(=O)c2cccnc2-c2ncccc21,"TAS2R5 (Homo sapiens, UniProt Q9NYW4)",,HEK293 cell membranes,,0.9 ± 0.7 µM
COc1ccc(-c2coc3cc(O[C@@H]4O[C@H](CO)[C@@H](O)[C@H](O)[C@H]4O)ccc3c2=O)cc1O,"TAS1R2 (Homo sapiens, UniProt Q8TE23)",binding,0.5% DMSO,,0.000792 µM
CCCn1c(=O)c2[nH]c(-c3ccc(OCC(=O)NCCNC(=O)CCCCCNC(=O)CCCCCNS(=O)(=O)c4cccc5c(N(C)C)cccc45)cc3)nc2n(CCC)c1=O,ADORA1,"CRE reporter gene, antagonist",CHO-A1,"Gs-mediated enhancement, added: NECA and forskolin",0.0501 µM
CC(=O)N[C@@H]1[C@@H](O[C@@H]2O[C@H](C(=O)O)[C@@H](O[C@@H]3O[C@H](CO)[C@@H](O)[C@H](O[C@@H]4O[C@H](C(=O)O)[C@@H](O)[C@H](O)[C@H]4O)[C@H]3NC(C)=O)[C@H](O)[C@H]2O)[C@H](O)[C@@H](CO)O[C@H]1N=[N+]=[N-],Bone morphogenetic protein 2,fluorescence polarization competition,,,no binding
CC1(C)Cc2sc(NC(=O)Cc3ccc(S(N)(=O)=O)cc3)c(C#N)c2CN1CC1CCCCC1,"Genome polyprotein, NS4B (Dengue virus type 1, UniProt P17763)","binding, isothermal titration calorimetry",,"NS4B, DENV-1",0.437 µM
CCNC(=O)[C@H]1O[C@@H](n2cnc3c(NCCCNC(=O)CCCCCNC(=O)COc4ccc(/C=C/C5=[N+]6C(=Cc7ccc(-c8cccs8)n7[B-]6(F)F)C=C5)cc4)ncnc32)[C@H](O)[C@@H]1O,ADORA1,radioligand binding,CHO-A1,"apparent, from IC50, added: [3H]DPCPX",0.24 µM
CS[C@@H]1O[C@H](COS(=O)(=O)O)[C@@H](OS(=O)(=O)O)[C@H](O[C@@H]2O[C@H](C(=O)O)[C@@H](O[C@@H]3O[C@H](COS(=O)(=O)O)[C@@H](OS(=O)(=O)O)[C@H](O[C@@H]4O[C@H](C(=O)O)[C@@H](OS(=O)(=O)O)[C@H](OS(=O)(=O)O)[C@H]4OS(=O)(=O)O)[C@H]3NC(C)=O)[C@H](OS(=O)(=O)O)[C@H]2OS(=O)(=O)O)[C@H]1NC(C)=O,Bone morphogenetic protein 2,"ligand displacement, FP",,,2.36 µM
O=C(Cc1cccc(C(F)(F)F)c1)Nc1cc(Oc2cc3sc(NC(=O)C4CC4)nc3cc2Cl)ccc1F,RIPK1,"binding, competition with immobilised ligand",,,0.036 µM
